# Results from different studies.
# Parts stem from different laboratories: compare values within a part only.

# Study 1
# Target: Replicase polyprotein 1ab, main protease (rep, Severe acute respiratory syndrome coronavirus 2, UniProt P0DTD1)
# Read-out: enzyme activity
# Mode: inhibitor
# Tested at: 20 µM
# Notes: primary screen
SMILES,inhibition
CCn1c(-c2nonc2N)nc2cnc(Oc3cccc(NC(=O)c4ccc(OCCN5CCOCC5)cc4)c3)cc21,29.1%
CC[C@]1(O)C[C@H]2C[N@@](CCc3c([nH]c4ccccc34)[C@@](C(=O)OC)(c3cc4c(cc3OC)N(C=O)[C@H]3[C@@](O)(C(=O)OC)[C@H](OC(C)=O)[C@]5(CC)C=CCN6CC[C@]43[C@@H]65)C2)C1,74.1%
S=c1nn[nH]n1-c1ccccc1,97.8%
Cc1c(C)c(NCC(=O)N(C)C2CCN(Cc3ccc(C(N)=O)cc3)CC2)c(C)c(C)c1N,25.5%
CN1CCN(c2cccc(Nc3nc4c(-c5ccc(S(C)(=O)=O)cc5)cccn4n3)c2)CC1,33.8%
CC(C)(C)c1cc(O)c(C(C)(C)C)cc1O,25.9%
Cc1cc(-c2cc(O)ccc2Cl)cc2nnc(Nc3ccc(OCCN4CCCC4)cc3)nc12,30.7%

# Study 2
# Target: Histone acetyltransferase KAT6A, both winged helices, GST fusion (KAT6A, Homo sapiens, UniProt Q92794, residues 1-181)
# Technique: protein binding microarray
# Molecule type: double-stranded DNA, one strand shown
# Medium: in vitro
# Tested at: not given
# Notes: 8-mer, flanks averaged, mean of 2 arrays, mostly near background
# Relative to: not given
# Reading: higher = stronger binding
# Target sequence (chain): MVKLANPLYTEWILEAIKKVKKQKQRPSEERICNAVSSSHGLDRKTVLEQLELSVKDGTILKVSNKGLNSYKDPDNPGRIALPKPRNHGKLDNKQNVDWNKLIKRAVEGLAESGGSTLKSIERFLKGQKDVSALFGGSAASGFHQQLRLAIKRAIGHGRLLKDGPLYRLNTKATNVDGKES
Oligonucleotide,E-score
GGTCCGTA,0.244
TCACCGAA,0.00538
GATGATCA,-0.0203
ACGTACCC,0.102
CTGAAATA,-0.0627
CAAAGGCC,-0.0285
AGCTCTAC,-0.174
ACATACTC,-0.175

# Study 3
# Target: Sal-like protein 4, full length isoform B (SALL4, Homo sapiens, UniProt Q9UJQ4-2, residues 1-616)
# Technique: universal PBM
# Molecule type: double-stranded DNA, one strand shown
# Medium: in vitro
# Tested at: not given
# Notes: 8-mer, flanks averaged, mean of replicates
# Reading: higher = stronger binding
# Target sequence (chain): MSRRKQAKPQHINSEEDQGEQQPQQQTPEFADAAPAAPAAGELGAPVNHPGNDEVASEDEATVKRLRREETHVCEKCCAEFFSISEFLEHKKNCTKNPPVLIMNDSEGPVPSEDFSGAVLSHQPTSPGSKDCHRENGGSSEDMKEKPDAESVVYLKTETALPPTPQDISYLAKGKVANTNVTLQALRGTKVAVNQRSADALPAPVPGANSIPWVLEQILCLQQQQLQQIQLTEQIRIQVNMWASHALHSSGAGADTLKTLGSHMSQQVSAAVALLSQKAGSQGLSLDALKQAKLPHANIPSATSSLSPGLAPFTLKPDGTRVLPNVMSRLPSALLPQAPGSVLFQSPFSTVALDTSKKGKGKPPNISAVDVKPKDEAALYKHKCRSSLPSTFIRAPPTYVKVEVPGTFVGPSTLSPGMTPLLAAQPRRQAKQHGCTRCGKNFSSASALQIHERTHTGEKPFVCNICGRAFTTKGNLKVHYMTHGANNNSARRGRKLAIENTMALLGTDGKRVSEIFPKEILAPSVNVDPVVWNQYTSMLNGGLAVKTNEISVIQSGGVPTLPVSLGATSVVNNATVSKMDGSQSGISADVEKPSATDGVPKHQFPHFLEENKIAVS
Oligonucleotide,E-score
CGTAGACG,-0.213
GGAATCAA,-0.0322
CGTACAGC,-0.147
ATCATACG,0.253
CATAAAAC,0.262
CACAGTGC,-0.317
ACAGCTTA,0.103
CGTGGGCC,-0.294

# Study 4
# Target: Replicase polyprotein 1ab, polymerase (rep, Severe acute respiratory syndrome coronavirus 2, UniProt P0DTD1)
# Read-out: enzyme activity
# Mode: inhibitor
# Tested at: 20 µM
Compound,inhibition [%]
CCOC(=O)OC(C)OC(=O)[C@@H]1N2C(=O)[C@@H](NC(=O)[C@H](N)c3ccccc3)[C@H]2SC1(C)C (stereo partly drawn),-2.47
CN1CCN(CCc2ccc(Cl)c(Cl)c2)CC1,-7.53
CCCCCCCCC(=O)NCc1cc(OC)c(O)cc1I,-2.91
CC(Cc1ccc(O)cc1)NCC(O)c1cc(O)cc(O)c1 (stereo not drawn),4.2
CCC(CC)Nc1cc(C)nc(Oc2c(C)cc(C)cc2C)c1C,0.09
[N-]=[N+]=N[C@]1(CO)O[C@@H](n2ccc(N)nc2=O)[C@@H](O)[C@@H]1O,-6.26
CCOC(=O)Nc1ccc(NCc2c(C)cc(C)cc2C)cc1N,-2.85
C[C@]12C=CC(=O)C=C1CC[C@@H]1[C@@H]2[C@@H](O)C[C@@]2(C)[C@H]1CC[C@]2(O)C(=O)COC(=O)CCC(=O)O,-6.15
O=C(O)C1=CCNCC1,-1.66
C[C@H](CS)C(=O)N1CCC[C@H]1C(=O)O,14.4
Clc1cccc(-n2nnnc2NCc2ccccc2Oc2ccccn2)c1Cl,5.95
COc1ccc(-c2cc(=O)c3c(O)cc(O)cc3o2)cc1O,16.8
C=C1C(=O)O[C@@H]2C[C@@]3(C)CCC[C@H](C)C3=C[C@H]12,-16.3
CC1=NN(c2ccccc2)C(=O)C1,-1.18
C[C@H]1C[C@H]2[C@@H]3CCC4=CC(=O)C=C[C@]4(C)[C@@]3(Cl)[C@@H](O)C[C@]2(C)[C@@]1(O)C(=O)CO,3.04
CC(C)Cn1cnc2c1c(=O)n(C)c(=O)n2C,-4.62
c1cc2c3c(c1)c1c(n3CCNC2)CCCC1,6.16
CC[C@H]1OC(=O)[C@H](C)[C@@H](O[C@H]2C[C@@](C)(OC)[C@@H](O)[C@H](C)O2)[C@H](C)[C@@H](O[C@@H]2O[C@H](C)C[C@H](N(C)C)[C@H]2O)[C@](C)(O)C[C@@H](C)C(=O)[C@H](C)[C@@H](O)[C@]1(C)O,6.45
OC[C@H]1O[C@@H](Oc2cc(O)cc(/C=C/c3ccc(O)cc3)c2)[C@H](O)[C@@H](O)[C@@H]1O,-3.04
c1ccc(C(NCc2cccnc2)(c2ccccc2)c2ccccc2)cc1,-3.34
CC(C)(C)NCC(O)c1ccc(O)c(CO)c1 (stereo not drawn),23.8
C=CCN1CCCC1CNC(=O)c1cc2nn[nH]c2cc1OC (stereo not drawn),-0.17
CC(=O)NC1=NN(C(C)=O)C(C)(c2ccccc2)S1 (stereo not drawn),-4.07
CN(CCOc1ccc(CC2SC(=O)NC2=O)cc1)c1ccccn1 (stereo not drawn),-6.12
CCCC(CCC)C(=O)Nc1ccn([C@@H]2O[C@H](CO)[C@@H](O)C2(F)F)c(=O)n1,0.64

# Study 5
# Cell line: HEK-293T
# Read-out: pseudovirus infection
# Technique: FDA-approved drug library screen
# Organism: VSV pseudotyped with SARS-CoV-2 spike
# Tested at: 10 µM
# Time: 16 h
# Relative to: vehicle-treated
SMILES,GFP-positive cells [%]
COC(=O)Nc1nc2ccc(C(=O)c3ccccc3)cc2[nH]1,17.4
Cn1c(=O)c2c(ncn2CC(O)CO)n(C)c1=O (stereo not drawn),70.5
Cn1cc[nH]c1=S,74.9
O=C(CCCCC(=O)Nc1c(I)cc(I)c(C(=O)O)c1I)Nc1c(I)cc(I)c(C(=O)O)c1I,115
CC1(C)O[C@@H]2C[C@H]3[C@@H]4CCC5=CC(=O)CC[C@]5(C)[C@@]4(F)[C@@H](O)C[C@]3(C)[C@]2(C(=O)CCl)O1,73.4
O=C1c2cccc3c2[C@H](CCC3)CN1[C@@H]1CN2CCC1CC2,88.4
